Measured values collected from several papers.
Compare with care: the assays were run in different laboratories.
T1: RNA, abasic bulge mismatch; chain CUAAUGGAAUG; chain CAUUUGGUUAG
T2: RNase P RNA (Methanobrevibacter smithii); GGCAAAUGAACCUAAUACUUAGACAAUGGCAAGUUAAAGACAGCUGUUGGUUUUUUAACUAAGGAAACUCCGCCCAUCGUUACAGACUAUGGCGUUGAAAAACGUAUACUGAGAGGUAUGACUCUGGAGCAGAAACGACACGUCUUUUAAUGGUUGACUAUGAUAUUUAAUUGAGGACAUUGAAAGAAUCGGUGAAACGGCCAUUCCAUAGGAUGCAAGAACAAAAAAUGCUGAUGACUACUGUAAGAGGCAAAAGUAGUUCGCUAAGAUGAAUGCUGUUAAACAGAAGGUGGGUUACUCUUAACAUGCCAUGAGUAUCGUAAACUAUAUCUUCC
T3: dsDNA, duplex; chain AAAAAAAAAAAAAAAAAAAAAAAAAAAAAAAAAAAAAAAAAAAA; chain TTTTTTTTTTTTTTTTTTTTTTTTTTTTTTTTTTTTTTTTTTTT
T4: RNA, abasic bulge, CUG repeat hairpin; GACAGCUGCUGUC
T5: RNA, abasic bulge mismatch; chain CUAACGGAAUG; chain CAUUCGGUUAG
T6: DNA aptamer; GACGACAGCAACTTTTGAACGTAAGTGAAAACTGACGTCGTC
T7: dsDNA; chain CTGCACTAGGCACTACCG; chain CGGTAGTGCCTAGTGCAG
T8: RNA, base-paired repeat; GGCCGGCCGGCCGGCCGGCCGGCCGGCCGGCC
T9: dsDNA, duplex; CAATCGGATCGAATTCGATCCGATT
T10: dsDNA, duplex; chain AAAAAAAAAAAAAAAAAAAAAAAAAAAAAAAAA; chain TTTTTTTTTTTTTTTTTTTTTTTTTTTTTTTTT

CNS(=O)(=O)Nc1nccc(Cc2c(C)c3ccc(Oc4ncccc4F)cc3oc2=O)c1F
IC50 (PE/CA-PJ34; cell viability, CellTiter-Glo; 7 days): 342 nM

Cc1ccc2ccc(NC(=O)OCCCN(CCCOC(=O)Nc3ccc4ccc(C)nc4n3)Cc3ccc(/N=N\c4ccc(CN(CCCOC(=O)Nc5ccc6ccc(C)nc6n5)CCCOC(=O)Nc5ccc6ccc(C)nc6n5)cc4)cc3)nc2n1
binding (T1, RNA, abasic bulge mismatch; CD spectra; induced CD, irradiated): binds

CN[C@H](C(=O)O)C(C)C
binding (T2, RNase P RNA (Methanobrevibacter smithii); WaterLOGSY NMR): no binding

Nc1ncc(-c2cc(-c3cnn(CC(F)(F)F)c3)ncc2F)nc1C(=O)NC1CNCC(F)C1 (stereo not drawn)
remaining binding (QSK; KINOMEscan competition binding; 1 µM; baseline: DMSO control): 85%

CCCc1n(Cc2ccc(Br)cc2)c2c([n+]1Cc1ccc(Br)cc1)CCCC2
binding (T3, dsDNA, duplex; competition with EtBr, competitor, EtBr displacement fluorescence; Na+ 50 mM, added: EtBr): binds

NCCN1CCN=C1c1ccc(C(=O)Nc2ccc(C3=NCCN3)cc2)cc1
binding (T4, RNA, abasic bulge, CUG repeat hairpin; NMR; 35 °C): binds

Cc1ccc2ccc(NC(=O)OCCCNCc3ccc(/N=N\c4ccc(CNCCCOC(=O)Nc5ccc6ccc(C)nc6n5)cc4)cc3)nc2n1
binding (T5, RNA, abasic bulge mismatch; thermal melting): no binding

CC(=O)c1cnc(N)nc1N1CC[C@H]1c1nn2ccc(Cl)c2c(=O)n1-c1ccccc1
binding (Phosphatidylinositol-4,5-bisphosphate 3-kinase, catalytic subunit gamma (Rattus norvegicus, UniProt D3ZFJ0); KiNativ; rat whole blood cells; 0.001 µM, 1 h): 10%

C=CC(=O)Nc1cccc(Cn2ncc3cnc(Nc4cnn(CCOC)c4)nc32)c1
percent of control (MYO3A human; binding, KINOMEscan; 100 nM; lower = stronger binding): 100%

Cn1c(=O)c2c(ncn2C)n(C)c1=O
binding (T6, DNA aptamer; competitor, fluorescence displacement; added: quinine 100 nM): no binding

N=C(NCCCCNC(=N)NCCCCNc1nc(N)nc(NCCCCNC(=N)NCCCCNC(=N)NCCCCNc2nc(N)nc(NCCCCN)n2)n1)NCCCCNc1nc(N)nc(NCCCCN)n1
binding (T7, dsDNA; ITC): binds weakly

Cc1ncsc1-c1ccc(C(C)NC(=O)C2CC(O)CN2C(=O)C(NC(=O)CCCCCCCCCCN2CCCC(Nc3ncc(Cl)c(Nc4ccccc4S(=O)(=O)C(C)C)n3)C2)C(C)(C)C)cc1 (stereo not drawn)
log2 fold change (22Rv1; RNA-seq, refers to: ZNF30 mRNA; concentration not given; baseline: DMSO): -1.42

COC1CN([C@H]2CC[C@H]([C@@]3(C)Oc4c(Cl)cc(C(=O)NCc5c(SC)cc(C)[nH]c5=O)c(C)c4O3)CC2)C1
log2 fold change (RNA-seq, refers to: LGR4 mouse homolog; mouse, HT-1376 xenograft, whole blood; dose not given; baseline: vehicle): 2.06

O=C(CN1CCCN(C(=O)CN2CCCN(Cc3cccc4cnccc34)CC2)CC1)NCCCOCCNCCOCCCNC(=O)CN1CCCN(C(=O)CN2CCCN(Cc3cccc4cnccc34)CC2)CC1
binding (T8, RNA, base-paired repeat; BLI): binds weakly

CN(C)c1ccc(C2=C/C(=C/C=C/c3sc4ccccc4[n+]3C)c3ccccc3O2)cc1
binding (T9, dsDNA, duplex; fluorescence turn-on): no binding

N=C(N)Nc1ccc(OC(=O)c2ccc(NC(=N)N)cc2)cc1
binding (T4, RNA, abasic bulge, CUG repeat hairpin; NMR; 25 °C): binds

CN(C)c1ccc(C2=C/C(=C/C=C/C3=[N+](C)c4ccccc4C3(C)C)c3ccccc3O2)cc1
binding (T9, dsDNA, duplex; fluorescence turn-on): binds

N=C(NCCCCNC(=N)NCCCCNc1nc(N)nc(NCCCCNC(=N)NCCCCNC(=N)NCCCCNc2nc(N)nc(NCCCCNC(=N)NCCCCNC(=N)NCCCCNc3nc(N)nc(NCCCCNC(=N)NCCCCNC(=N)NCCCCNc4nc(N)nc(NCCCCN)n4)n3)n2)n1)NCCCCNc1nc(N)nc(NCCCCN)n1
binding (T7, dsDNA; ITC): binds weakly

C=C(NC(=O)c1csc(-c2nc3c(cc2O)-c2nc(cs2)C(=O)NC(C(C)O)C(=O)NC(=C(C)OC)c2nc(cs2)C(=O)NC2c4nc(cs4)C(=O)NC(COC(=O)c4c5c6c(cccc6n4O)COC(=O)C(OC4CC(C)(O)C(N(C)C)C(C)O4)C2OC5)c2nc-3cs2)n1)C(N)=O (stereo not drawn)
Vz/F (cynomolgus monkey, female, plasma; intravenous infusion, 3 mg/kg, multiple doses, day 7): 1.05 L/kg

CCCCCCCCn1c(CC)c(C)[n+](CCCCCCCC)c1CCC
binding (T10, dsDNA, duplex; thermal melting real-time PCR; 0-100 µM, K+ 100 mM): binds

CN1CCCNC(=O)c2cccc(c2)C(=O)NCCCN(C)CCCNc2cccc3c2C(=O)c2cccc(c2C3=O)NCCC1
log2 fold change (SAS; RNA-Seq, refers to: SMAD2 mRNA; 1 µM, 6 h; baseline: untreated cells): -0.578
